Experimental data from different studies.
Every numbered part comes from another study and shows a few of its results, in no order.
UniProt Q9UQ88, sequence (whole entry, looked up): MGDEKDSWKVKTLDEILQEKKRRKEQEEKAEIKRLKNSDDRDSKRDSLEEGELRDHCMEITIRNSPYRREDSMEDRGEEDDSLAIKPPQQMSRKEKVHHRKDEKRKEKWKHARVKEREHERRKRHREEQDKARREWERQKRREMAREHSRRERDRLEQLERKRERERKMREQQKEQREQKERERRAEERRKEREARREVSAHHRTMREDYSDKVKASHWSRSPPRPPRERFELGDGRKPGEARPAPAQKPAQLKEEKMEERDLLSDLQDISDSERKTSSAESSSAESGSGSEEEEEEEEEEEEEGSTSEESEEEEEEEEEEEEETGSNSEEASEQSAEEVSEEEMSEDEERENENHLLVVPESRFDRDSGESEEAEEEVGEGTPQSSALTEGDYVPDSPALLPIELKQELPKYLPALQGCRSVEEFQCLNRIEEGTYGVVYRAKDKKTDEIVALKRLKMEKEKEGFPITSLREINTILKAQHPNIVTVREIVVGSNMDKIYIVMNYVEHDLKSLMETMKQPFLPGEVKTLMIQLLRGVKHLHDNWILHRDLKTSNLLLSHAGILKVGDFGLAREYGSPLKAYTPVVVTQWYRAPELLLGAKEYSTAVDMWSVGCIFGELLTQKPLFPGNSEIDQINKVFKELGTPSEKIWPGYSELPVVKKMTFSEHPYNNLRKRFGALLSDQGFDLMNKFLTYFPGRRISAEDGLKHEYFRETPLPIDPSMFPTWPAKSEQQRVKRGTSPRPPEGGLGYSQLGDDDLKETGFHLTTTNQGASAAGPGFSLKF
UniProt Q8TD08, sequence (whole entry, looked up): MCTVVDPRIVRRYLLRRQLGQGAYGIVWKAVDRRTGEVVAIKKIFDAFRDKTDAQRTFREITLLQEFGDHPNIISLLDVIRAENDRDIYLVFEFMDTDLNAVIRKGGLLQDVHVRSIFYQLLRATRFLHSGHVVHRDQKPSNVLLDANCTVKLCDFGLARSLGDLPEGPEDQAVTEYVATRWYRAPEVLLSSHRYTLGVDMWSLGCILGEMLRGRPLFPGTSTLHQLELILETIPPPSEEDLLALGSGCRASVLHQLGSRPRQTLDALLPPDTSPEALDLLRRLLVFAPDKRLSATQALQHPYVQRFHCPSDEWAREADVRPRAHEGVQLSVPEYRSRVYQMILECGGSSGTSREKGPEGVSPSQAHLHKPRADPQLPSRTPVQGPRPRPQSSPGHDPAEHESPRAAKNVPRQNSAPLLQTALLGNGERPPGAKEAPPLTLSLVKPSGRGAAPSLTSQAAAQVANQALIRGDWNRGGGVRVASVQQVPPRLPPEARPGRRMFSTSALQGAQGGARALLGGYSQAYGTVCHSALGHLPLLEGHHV
UniProt Q15303, sequence (whole entry, looked up): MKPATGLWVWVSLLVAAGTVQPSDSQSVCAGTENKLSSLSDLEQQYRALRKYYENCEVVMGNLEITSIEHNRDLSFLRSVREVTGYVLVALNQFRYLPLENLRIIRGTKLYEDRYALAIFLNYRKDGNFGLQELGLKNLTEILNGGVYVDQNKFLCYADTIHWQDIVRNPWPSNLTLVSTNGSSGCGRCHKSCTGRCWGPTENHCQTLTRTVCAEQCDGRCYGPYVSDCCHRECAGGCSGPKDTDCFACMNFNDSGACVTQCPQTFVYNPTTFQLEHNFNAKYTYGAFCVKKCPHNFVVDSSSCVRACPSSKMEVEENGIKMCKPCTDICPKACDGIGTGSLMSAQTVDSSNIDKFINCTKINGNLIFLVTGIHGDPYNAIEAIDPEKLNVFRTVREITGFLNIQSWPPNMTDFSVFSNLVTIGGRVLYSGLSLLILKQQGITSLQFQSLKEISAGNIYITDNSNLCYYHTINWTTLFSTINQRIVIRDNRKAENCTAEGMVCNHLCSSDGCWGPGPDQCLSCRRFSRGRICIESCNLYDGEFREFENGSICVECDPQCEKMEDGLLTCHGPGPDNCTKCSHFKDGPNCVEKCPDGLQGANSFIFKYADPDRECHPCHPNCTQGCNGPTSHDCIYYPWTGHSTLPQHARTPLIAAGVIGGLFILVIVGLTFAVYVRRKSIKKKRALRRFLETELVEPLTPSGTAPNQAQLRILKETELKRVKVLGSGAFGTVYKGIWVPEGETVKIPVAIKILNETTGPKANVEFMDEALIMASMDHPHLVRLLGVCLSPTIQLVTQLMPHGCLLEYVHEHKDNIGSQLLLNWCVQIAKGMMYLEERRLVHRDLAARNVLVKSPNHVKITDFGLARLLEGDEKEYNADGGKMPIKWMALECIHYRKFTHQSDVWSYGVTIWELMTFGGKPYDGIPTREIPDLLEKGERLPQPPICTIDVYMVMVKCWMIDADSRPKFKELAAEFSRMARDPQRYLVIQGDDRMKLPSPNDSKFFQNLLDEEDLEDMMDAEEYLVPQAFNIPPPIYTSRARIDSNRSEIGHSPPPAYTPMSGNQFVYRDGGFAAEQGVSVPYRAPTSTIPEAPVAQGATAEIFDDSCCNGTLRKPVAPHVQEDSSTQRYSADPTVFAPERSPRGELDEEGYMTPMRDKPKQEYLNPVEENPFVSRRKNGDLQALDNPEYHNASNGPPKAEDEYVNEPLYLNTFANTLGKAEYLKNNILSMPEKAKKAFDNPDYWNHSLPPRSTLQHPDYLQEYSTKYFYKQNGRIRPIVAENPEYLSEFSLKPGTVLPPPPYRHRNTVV
UniProt P50613, sequence (whole entry, looked up): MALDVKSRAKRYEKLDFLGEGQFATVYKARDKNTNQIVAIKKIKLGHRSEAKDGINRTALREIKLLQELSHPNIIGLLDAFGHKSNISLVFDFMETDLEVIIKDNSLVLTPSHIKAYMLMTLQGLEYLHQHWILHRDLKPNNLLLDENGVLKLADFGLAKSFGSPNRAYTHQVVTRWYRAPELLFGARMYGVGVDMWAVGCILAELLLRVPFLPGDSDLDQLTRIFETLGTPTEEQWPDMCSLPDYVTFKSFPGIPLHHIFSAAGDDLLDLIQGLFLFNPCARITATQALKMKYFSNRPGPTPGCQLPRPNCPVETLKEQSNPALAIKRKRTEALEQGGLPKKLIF
UniProt Q96S53, sequence (whole entry, looked up): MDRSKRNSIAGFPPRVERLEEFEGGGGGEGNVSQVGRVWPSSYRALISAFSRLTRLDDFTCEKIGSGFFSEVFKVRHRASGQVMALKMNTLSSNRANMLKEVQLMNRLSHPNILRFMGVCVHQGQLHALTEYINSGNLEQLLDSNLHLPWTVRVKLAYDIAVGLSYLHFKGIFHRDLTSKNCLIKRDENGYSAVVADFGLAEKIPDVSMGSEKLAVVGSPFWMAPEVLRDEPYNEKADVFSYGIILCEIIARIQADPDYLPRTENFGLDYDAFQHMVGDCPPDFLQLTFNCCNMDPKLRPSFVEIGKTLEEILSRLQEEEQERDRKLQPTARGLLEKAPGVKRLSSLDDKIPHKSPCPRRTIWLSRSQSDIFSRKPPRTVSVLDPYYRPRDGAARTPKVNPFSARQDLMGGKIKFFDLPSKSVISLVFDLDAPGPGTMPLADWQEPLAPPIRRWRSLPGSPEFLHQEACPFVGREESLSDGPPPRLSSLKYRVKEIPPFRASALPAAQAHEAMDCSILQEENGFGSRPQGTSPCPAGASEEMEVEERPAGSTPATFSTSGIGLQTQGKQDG
UniProt P22607, sequence (whole entry, looked up): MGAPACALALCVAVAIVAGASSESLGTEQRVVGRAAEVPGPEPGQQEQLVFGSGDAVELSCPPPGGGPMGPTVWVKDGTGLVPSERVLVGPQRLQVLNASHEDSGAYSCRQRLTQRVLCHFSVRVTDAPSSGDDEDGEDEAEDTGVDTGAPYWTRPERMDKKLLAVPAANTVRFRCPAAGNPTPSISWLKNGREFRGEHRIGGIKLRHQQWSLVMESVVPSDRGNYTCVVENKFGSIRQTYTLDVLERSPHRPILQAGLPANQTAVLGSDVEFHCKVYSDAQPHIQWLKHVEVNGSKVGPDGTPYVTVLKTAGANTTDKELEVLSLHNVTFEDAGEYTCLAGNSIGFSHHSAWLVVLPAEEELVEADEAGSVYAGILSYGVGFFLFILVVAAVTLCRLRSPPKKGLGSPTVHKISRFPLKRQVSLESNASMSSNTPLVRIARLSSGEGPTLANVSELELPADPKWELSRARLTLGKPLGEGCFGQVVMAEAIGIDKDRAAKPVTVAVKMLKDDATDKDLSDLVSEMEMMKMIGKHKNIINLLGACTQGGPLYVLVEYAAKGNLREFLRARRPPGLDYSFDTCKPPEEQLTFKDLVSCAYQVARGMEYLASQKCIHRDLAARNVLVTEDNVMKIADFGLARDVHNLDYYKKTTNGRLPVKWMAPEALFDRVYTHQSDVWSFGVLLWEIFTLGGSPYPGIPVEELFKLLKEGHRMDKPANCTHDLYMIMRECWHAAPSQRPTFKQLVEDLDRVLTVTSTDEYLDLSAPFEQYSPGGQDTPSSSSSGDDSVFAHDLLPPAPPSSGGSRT
UniProt Q00535, sequence (whole entry, looked up): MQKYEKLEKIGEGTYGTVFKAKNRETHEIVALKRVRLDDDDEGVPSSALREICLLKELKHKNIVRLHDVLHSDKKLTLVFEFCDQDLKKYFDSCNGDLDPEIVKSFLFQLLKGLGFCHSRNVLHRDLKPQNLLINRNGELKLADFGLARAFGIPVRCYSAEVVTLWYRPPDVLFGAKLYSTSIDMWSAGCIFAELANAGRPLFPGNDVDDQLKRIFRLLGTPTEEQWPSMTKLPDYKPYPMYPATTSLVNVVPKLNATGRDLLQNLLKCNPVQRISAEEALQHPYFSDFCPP
UniProt P51817, sequence (whole entry, looked up): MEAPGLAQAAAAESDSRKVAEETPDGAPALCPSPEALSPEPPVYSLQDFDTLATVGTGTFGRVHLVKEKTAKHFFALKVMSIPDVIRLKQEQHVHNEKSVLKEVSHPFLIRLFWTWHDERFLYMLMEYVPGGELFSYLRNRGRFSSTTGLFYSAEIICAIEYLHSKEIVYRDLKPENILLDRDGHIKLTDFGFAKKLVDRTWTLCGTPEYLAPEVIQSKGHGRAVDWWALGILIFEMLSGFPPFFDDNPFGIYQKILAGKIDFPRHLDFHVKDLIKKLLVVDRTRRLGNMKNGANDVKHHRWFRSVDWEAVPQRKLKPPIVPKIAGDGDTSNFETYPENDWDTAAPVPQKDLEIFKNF

Study 1
Compound: Cc1c(NC(=O)c2cc(C(N)=O)nc3cc(F)ccc23)c(C(F)(F)F)nn1Cc1ccc(C#N)cc1
Method: competition with immobilised ligand
Tested at: 1 µM
Measurement: remaining binding
Receptor tyrosine-protein kinase erbB-4 (ERBB4, Homo sapiens, UniProt Q15303); cell-free assay: 95%
Tyrosine-protein kinase ABL1, phosphorylated (ABL1, Homo sapiens, UniProt P00519, Y253F); cell-free assay: 80%
Macrophage colony-stimulating factor 1 receptor, autoinhibited (CSF1R, Homo sapiens, UniProt P07333); cell-free assay: 100%
cAMP-dependent protein kinase catalytic subunit PRKX (PRKX, Homo sapiens, UniProt P51817); cell-free assay: 92%
Cyclin-dependent kinase 11A (CDK11A, Homo sapiens, UniProt Q9UQ88); binding: 100%
Epidermal growth factor receptor (EGFR, Homo sapiens, UniProt P00533, A750P/del747-749); cell-free assay: 91%
Cyclin-dependent kinase 2 (CDK2, Homo sapiens, UniProt P24941); cell-free assay: 91%

Study 2
Structure (SMILES): CC(C)n1cnc(-c2ccc(F)cc2)c1-c1ncc(C(=O)Nc2ccc(N3CCN(C)CC3)cc2)[nH]1
Method: phase 2a trial
Species: idiopathic pulmonary fibrosis patients
Measurement: patients with pneumonia
60 mg once daily, grade 5 emergent event: 0%
30 mg once daily, grade 3 emergent event: 0%
30 mg once daily, grade 5 emergent event: 0%
30 mg once daily, grade 4 emergent event: 0%
30 mg once daily, grade 2 emergent event: 0%
30 mg once daily, grade 1 emergent event: 0%

Study 3
Compound: O=C(Nc1cnn(-c2csc(C(=O)NC3COC3)c2)c1)Nc1ccccc1Cl
Observed: enzyme activity
Tested at: 5 µM
Measurement: remaining activity
Dual specificity testis-specific protein kinase 2 (TESK2, Homo sapiens, UniProt Q96S53); inhibitor: 93.3%
Mitogen-activated protein kinase 15 (MAPK15, Homo sapiens, UniProt Q8TD08); reference: untreated control: 123%
Cyclin-dependent kinase 5, with p35 (CDK5, Homo sapiens, UniProt Q00535); reference: untreated control: 94.3%
Fibroblast growth factor receptor 3 (FGFR3, Homo sapiens, UniProt P22607); reference: untreated control: 84.9%
Cyclin-dependent kinase 7 (CDK7, Homo sapiens, UniProt P50613); reference: untreated control: 96.6%
Serine/threonine-protein kinase ULK1 (ULK1, Homo sapiens, UniProt O75385); reference: untreated control: 131%

Study 4
Target: Ephrin type-B receptor 1 (EPHB1, Homo sapiens, UniProt P54762)
Observed: enzyme activity
Action: inhibitor
Tested at: 0.5 µM
Reference: control
Measurement: remaining activity
Construct (P54762 1-984): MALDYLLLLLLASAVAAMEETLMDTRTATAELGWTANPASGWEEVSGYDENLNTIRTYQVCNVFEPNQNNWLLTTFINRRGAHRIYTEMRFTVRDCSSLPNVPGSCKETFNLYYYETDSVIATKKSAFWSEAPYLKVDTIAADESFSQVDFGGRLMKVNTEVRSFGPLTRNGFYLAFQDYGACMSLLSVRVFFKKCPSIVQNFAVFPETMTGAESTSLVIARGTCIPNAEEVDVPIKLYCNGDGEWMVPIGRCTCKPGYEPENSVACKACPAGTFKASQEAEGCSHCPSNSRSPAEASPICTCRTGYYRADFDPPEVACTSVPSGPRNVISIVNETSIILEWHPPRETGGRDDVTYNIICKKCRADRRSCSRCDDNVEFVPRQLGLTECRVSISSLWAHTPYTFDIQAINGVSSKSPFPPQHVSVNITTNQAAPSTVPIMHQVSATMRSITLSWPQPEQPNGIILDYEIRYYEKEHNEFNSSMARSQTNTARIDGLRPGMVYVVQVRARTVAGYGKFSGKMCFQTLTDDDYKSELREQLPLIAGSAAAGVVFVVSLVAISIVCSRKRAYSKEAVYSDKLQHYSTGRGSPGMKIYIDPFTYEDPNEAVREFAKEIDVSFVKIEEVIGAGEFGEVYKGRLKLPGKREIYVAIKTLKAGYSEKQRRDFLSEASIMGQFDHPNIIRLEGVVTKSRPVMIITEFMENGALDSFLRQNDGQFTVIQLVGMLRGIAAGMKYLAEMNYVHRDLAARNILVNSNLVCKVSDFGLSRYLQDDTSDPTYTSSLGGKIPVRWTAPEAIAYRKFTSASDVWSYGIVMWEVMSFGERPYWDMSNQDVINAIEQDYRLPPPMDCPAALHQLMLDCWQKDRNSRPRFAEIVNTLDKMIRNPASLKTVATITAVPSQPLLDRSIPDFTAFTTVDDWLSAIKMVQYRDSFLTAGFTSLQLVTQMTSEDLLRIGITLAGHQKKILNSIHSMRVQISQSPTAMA
O=S(=O)(c1cccc2cnccc12)N1CCCNCC1: 106%
CN(C)c1ccc(C=C2C(=O)Nc3ccccc32)cc1: 102%
Cn1sc(=O)n(Cc2ccccc2)c1=O: 100%
Cn1c2ccccc2c2c3c(c4c5ccccc5n(CCC#N)c4c21)CNC3=O: 95%
COc1cc2ncnc(Nc3ccc(Oc4ccccc4)cc3)c2cc1OC: 108%
N#CC(C#N)=C(N)/C(C#N)=C/c1ccc(O)cc1: 88.3%
Cc1ccc(Nc2nccc(N(C)c3ccc4c(C)n(C)nc4c3)n2)cc1S(N)(=O)=O: 92.2%
O=C(O)c1ccc2c3c1cccc3c(=O)n1c3ccccc3nc21: 97.5%
NCCNc1ncc(C(N)=O)c(Nc2cccc(C(F)(F)F)c2)n1: 86.9%
Cc1ccc(NC(=O)c2ccc(CN3CCN(C)CC3)cc2)cc1Nc1nc(-c2cccnc2)cs1: 94.9%
O=C(CCCc1ccc(-c2ccccc2F)cc1)Nc1ccc(O)cc1: 96.4%
Cc1cccc(-c2[nH]c(C(C)(C)C)nc2-c2ccc3c(c2)OCO3)n1: 95.5%
Nc1[nH]nc2nc3ccccc3nc12: 92.3%
COc1ccc(CNC(=O)Nc2ncc([N+](=O)[O-])s2)cc1: 102%

A few entries again (study 2):
30 mg once daily, grade 5 emergent event: 0%
30 mg once daily, grade 4 emergent event: 0%
30 mg once daily, grade 2 emergent event: 0%
